{"data": "Results from different studies", "note": "Each line is one published result; not all experiments were run side by side. ± marks the error that the study gave."}
{"Structure (SMILES)": "CC(C)(C(=O)N1CCOc2c(C#N)cncc2C1)C(F)F", "test": "refers to: ALT increased", "system": "human", "setting": "oral, 20 mg once daily, 14 days, multiple ascending dose", "endpoint": "subjects with adverse event", "value": "0%"}
{"Structure (SMILES)": "CCN1CCN(Cc2ccc(NC(=O)c3ccc(C)c(NC(=O)c4cncc(-c5cccs5)c4)c3)cc2C(F)(F)F)CC1", "system": "C57BL/6 mice, epithelial lining fluid", "setting": "intraperitoneal, 10 mg/kg", "endpoint": "AUC(0-t)", "value": "4140 ng·h/mL"}
{"Structure (SMILES)": "Cc1ccc(NS(=O)(=O)c2cccc(Cl)c2O)c(-c2ncn[nH]2)c1", "test": "colloidal aggregate formation, dynamic light scattering", "system": "50 mM potassium phosphate buffer", "setting": "200 µM, pH 7.0, 1% DMSO", "scale": "higher = more aggregation", "endpoint": "DLS scattered light intensity", "value": "404000 counts/s"}
{"Structure (SMILES)": "CCc1nc(C(N)=O)c(Nc2ccc(N3CCC(N4CCN(C)CC4)CC3)c(OC)c2)nc1NC1CCOCC1", "system": "female FVB mice, wild-type, plasma", "setting": "oral, 10 mg/kg, single dose", "endpoint": "AUC(0-t)", "value": "5350 ± 395 ng·h/mL"}
{"Structure (SMILES)": "CO[C@H]1C[C@@H]2CC[C@@H](C)[C@@](O)(O2)C(=O)C(=O)N2CCCC[C@H]2C(=O)O[C@H]([C@H](C)C[C@@H]2CC[C@@H](OC(=O)NCCOCCOCCOCCOCCOCCOCCOCCOCCC(=O)N3CCc4cc(Cn5nc(-c6ccc7oc(N)nc7c6)c6c(N)ncnc65)ccc4C3)[C@H](OC)C2)C[C@@H](O)[C@H](C)/C=C(\\C)[C@@H](O)[C@@H](OC)C(=O)[C@H](C)C[C@H](C)/C=C/C=C/C=C/1C", "system": "human patients, plasma", "setting": "intravenous, 16 mg, cycle 1", "scale": "baseline: day 15 over day 1", "endpoint": "AUClast ratio", "value": 1.3}
{"Structure (SMILES)": "CC(C)c1nc(CN(C)C(=O)N[C@H](C(=O)N[C@@H](Cc2ccccc2)C[C@H](O)[C@H](Cc2ccccc2)NC(=O)OCc2cncs2)C(C)C)cs1", "system": "Macaca nemestrina", "setting": "subcutaneous, fast pathway, TLC-ART", "endpoint": "lymph node sequestered fraction", "value": 0.89}
{"Structure (SMILES)": "CC(=O)Oc1ccccc1C(=O)O", "system": "male Hartley guinea pig, anaesthetized", "setting": "intravenous, 10 mg/kg, baseline before infusion", "endpoint": "QTc interval", "value": "299 ± 0.2 ms"}
{"Structure (SMILES)": "CCCCCc1ccc(C(=O)Oc2ccc(C#N)c(F)c2)cc1", "test": "refers to: compound", "system": "human pregnant women, male fetuses, cord serum", "setting": "dose not given, paired maternal-cord samples, mean", "endpoint": "concentration", "value": "0.88 ng/mL"}
{"Structure (SMILES)": "CCOc1c([C@H](C)n2nc(C)c3c(N)ncnc32)cc(Cl)c(F)c1[C@@H]1CNC(=O)C1", "test": "refers to: 30 < ΔQTcF ≤ 60 ms", "system": "previously treated B-cell malignancy", "setting": "oral, 30 mg once daily, baseline QTcF ≤450 ms", "endpoint": "share of patients", "value": "4.2%"}
{"Structure (SMILES)": "C=CC(=O)N1CCC(c2ccc(C(N)=O)c(-c3ccc(Oc4ccccc4)cc3)n2)CC1", "system": "relapsed/refractory mantle cell lymphoma patients", "setting": "oral, dose not given, part, all doses, CTCAE v4.03", "endpoint": "serious TEAE rate", "value": "0%"}
{"Structure (SMILES)": "COC(=O)/C(C#N)=C1\\Nc2ccccc2O1", "test": "haemolysis", "system": "sheep erythrocytes", "setting": "1 h, pH 7.5", "endpoint": "HC50", "value": "> 128 µg/mL"}
{"Structure (SMILES)": "Cc1c(Cl)c(C)[n+]([O-])c(Cl)c1-c1noc(-c2cc(O)c(O)c([N+](=O)[O-])c2)n1", "system": "healthy Chinese subjects", "setting": "oral, 25 mg", "endpoint": "serious TEAE incidence", "value": "0%"}
{"Structure (SMILES)": "CC(C)C(=O)O[C@H]1[C@H](C)OC(=O)[C@@H]1Cc1ccccc1", "test": "soil adsorption", "system": "tested soils", "setting": "geometric mean", "endpoint": "Freundlich coefficient KF", "value": "3.2 mL/g"}
{"Structure (SMILES)": "CNC(=O)c1cccc(-c2ccc(O[C@H]3O[C@H](CO)[C@@H](O)[C@H](O)[C@@H]3O)c(C)c2)c1", "system": "male Sprague-Dawley rat, plasma", "setting": "intravenous, 3 mg/kg, group mean", "endpoint": "terminal half-life", "value": "18.7 min"}
{"Structure (SMILES)": "O=C(O)c1cccc(C(=O)O)c1", "system": "betaine/glycerol DES-water", "setting": "DES mass fraction 0.80", "endpoint": "apparent dissolution enthalpy", "value": "3.49 kcal/mol"}
{"Structure (SMILES)": "CN1C[C@H](COc2nccc3c(NCc4ccco4)cc(Cl)nc23)OC1=O", "system": "rabbit NZW female, isolated Langendorff heart", "setting": "10 µM, 15 min", "endpoint": "QTc interval", "value": "266 ms"}
{"Structure (SMILES)": "COc1ccc2c(c1)CN(C(=O)CCN1CCC(Cc3ccccc3)CC1)CC[S@@+]2[O-]", "test": "telemetry", "system": "conscious dog", "setting": "intravenous, 2 mg/kg, 4 h", "endpoint": "heart rate", "value": "69 ± 13 beats/min"}
{"Structure (SMILES)": "O=C(Nc1nc2cccc(-c3ccc(CN4CCS(=O)(=O)CC4)cc3)n2n1)C1CC1", "test": "refers to: constipation", "system": "human rheumatoid arthritis patients", "setting": "oral, 150 mg once daily, 4 weeks, regardless of relatedness", "endpoint": "treatment-emergent adverse events", "value": "6.7%"}
{"Structure (SMILES)": "Nc1nc2c(nc([N+](=O)[O-])n2[C@@H]2O[C@H](CO)[C@@H](O)[C@H]2O)c(=O)[nH]1", "test": "depurination, RP-HPLC", "system": "citrate-phosphate buffer 0.5 mM", "setting": "255 min, pH 2, 37 °C", "endpoint": "nucleoside remaining fraction", "value": 0.553}
{"Structure (SMILES)": "O=C(O)c1ccoc1S(=O)(=O)NCc1cc(-c2ccccc2)no1", "test": "colloidal aggregate formation, dynamic light scattering", "system": "50 mM potassium phosphate buffer", "setting": "200 µM, pH 7.0, 1% DMSO", "scale": "higher = more aggregation", "endpoint": "DLS scattered light intensity", "value": "1.44e+06 counts/s"}
{"Structure (SMILES)": "C[C@@H](Nc1cc(F)cc(F)c1)c1cc(C(=O)N(C)C)cc2c(=O)cc(N3CCOCC3)oc12", "system": "human, plasma", "setting": "oral, 180 mg single dose, day 1, range, 5:2 twice daily schedule", "endpoint": "AUC(0-12)", "value": "4940 to 8540 ng·h/mL"}
{"Structure (SMILES)": "O=S(=O)(NC1CCSc2c(F)cccc21)c1c(O)cc(F)c(F)c1F (centres unmarked)", "test": "colloidal aggregate formation, dynamic light scattering", "system": "50 mM potassium phosphate buffer", "setting": "200 µM, pH 7.0, 1% DMSO", "scale": "higher = more aggregation", "endpoint": "DLS scattered light intensity", "value": "1.37e+06 counts/s"}
{"Structure (SMILES)": "C/C(O)=C(\\C#N)C(=O)Nc1ccc(C(F)(F)F)cc1", "system": "CD-1 mice female, whole blood", "setting": "oral, 10 mg/kg leflunomide daily, 8 h, after dose 10", "endpoint": "blood concentration", "value": "129 ± 36.6 µM"}
{"Structure (SMILES)": "COc1ccc2c(=O)n(C)c(-c3ccccc3)nc2c1", "system": "male Sprague-Dawley rat, large intestine", "setting": "oral, 30 mg/kg, 0.5 h", "endpoint": "tissue concentration", "value": "375 ng/g"}
{"Structure (SMILES)": "C[C@H](CS)C(=O)N1CCC[C@H]1C(=O)O", "system": "male Hartley guinea pig, anaesthetized", "setting": "intravenous infusion, 30 mg/kg, 10 min infusion, post-infusion", "endpoint": "QTc interval", "value": "337 ± 0.2 ms"}
{"Structure (SMILES)": "O=C(N[C@H](Cc1c[nH]c2ccccc12)C(=O)Nc1ccncc1)c1ccc(-c2cc(C(F)(F)F)ccc2F)cc1F", "system": "Swiss Webster mouse, female, liver", "setting": "oral, 50 mg/kg, 2 h, 20% HPβCD vehicle", "endpoint": "concentration", "value": "10.5 µM"}
{"Structure (SMILES)": "CNCCOC12CC3(C)CC(C)(CC(Cn4ncc(-c5ccc(N6CCc7cccc(C(=O)Nc8nc9ccccc9s8)c7C6)nc5C(=O)O)c4C)(C3)C1)C2", "system": "beagle dog, male, anaesthetised", "setting": "intravenous bolus, 0.03 mg/kg, 60 min", "scale": "baseline: baseline", "endpoint": "PR interval change", "value": "-3 ms"}
{"Structure (SMILES)": "CNC(=O)c1ccc(-c2cnc3ncc(Cc4ccc5ncccc5c4)n3n2)cc1F", "system": "Japanese patients", "setting": "oral, 400 mg, any grade", "endpoint": "Pyrexia dose reduction/interruption", "value": "3%"}
{"Structure (SMILES)": "O=C1CCc2ccc(OCCCCN3CCN(c4cccc(Cl)c4Cl)CC3)cc2N1", "test": "refers to: Hypertension", "system": "patients, CYP2D6 intermediate metabolizers", "setting": "dose not given, long-acting oral or depot", "endpoint": "adverse event incidence", "value": "1.9%"}
{"Structure (SMILES)": "O=C(O)CCC(=O)O.[2H]C([2H])([2H])Oc1cc(C)c2[nH]ccc2c1CN1CC[C@@H](C2CC2)C[C@H]1c1ccc(C(=O)O)cc1", "system": "healthy Chinese subjects", "setting": "oral, 600 mg, single ascending dose", "endpoint": "subjects with elevated uric acid", "value": "0%"}
{"Structure (SMILES)": "COc1ccc2nc(NC(=O)c3cc(=O)c4ccccc4o3)sc2c1", "test": "haemolysis", "system": "sheep erythrocytes", "setting": "1 h, pH 7.5", "endpoint": "HC50", "value": "> 64 µg/mL"}
{"Structure (SMILES)": "CC(=O)c1cc(NS(=O)(=O)c2cc(Cl)cc(Cl)c2O)ccc1F", "test": "colloidal aggregate formation, dynamic light scattering", "system": "50 mM potassium phosphate buffer", "setting": "200 µM, pH 7.0, 1% DMSO", "scale": "higher = more aggregation", "endpoint": "DLS scattered light intensity", "value": "526000 counts/s"}
{"Structure (SMILES)": "C[C@@H]1CN(c2c(F)c(N)c3c(=O)c(C(=O)O)cn(C4CC4)c3c2F)C[C@H](C)N1", "system": "male Hartley guinea pig, anaesthetized", "setting": "intravenous, 10 mg/kg, baseline before infusion", "endpoint": "QTc interval", "value": "334 ± 0.4 ms"}
{"Structure (SMILES)": "Cn1ncc(S(=O)(=O)NC(c2ccc(Cl)cc2)c2cccs2)c1C(=O)O (centres unmarked)", "test": "colloidal aggregate formation, dynamic light scattering", "system": "50 mM potassium phosphate buffer", "setting": "200 µM, pH 7.0, 1% DMSO", "scale": "higher = more aggregation", "endpoint": "DLS scattered light intensity", "value": "199000 counts/s"}
{"Structure (SMILES)": "C[C@@H](Cn1ccc(-c2ccc(C#N)c(Cl)c2)n1)NC(=O)c1cc([C@@H](C)O)[nH]n1", "system": "human, fasted, plasma", "setting": "oral solution, 300 mg 14C-darolutamide, geometric mean", "endpoint": "AUC(0-tlast)", "value": "6920 ng·h/mL"}
{"note": "Repeated from above:"}
{"Structure (SMILES)": "O=C(Nc1nc2cccc(-c3ccc(CN4CCS(=O)(=O)CC4)cc3)n2n1)C1CC1", "test": "refers to: constipation", "system": "human rheumatoid arthritis patients", "setting": "oral, 150 mg once daily, 4 weeks, regardless of relatedness", "endpoint": "treatment-emergent adverse events", "value": "6.7%"}
{"Structure (SMILES)": "CCc1nc(C(N)=O)c(Nc2ccc(N3CCC(N4CCN(C)CC4)CC3)c(OC)c2)nc1NC1CCOCC1", "system": "female FVB mice, wild-type, plasma", "setting": "oral, 10 mg/kg, single dose", "endpoint": "AUC(0-t)", "value": "5350 ± 395 ng·h/mL"}
